Measurements of several laboratories.
Each numbered part is a random draw from the data of one study; scales do not carry over between parts. “And” joins repeats or separate records; there may be more than shown.
Sequence of UniProt P42336 (whole entry, unmodified, looked up): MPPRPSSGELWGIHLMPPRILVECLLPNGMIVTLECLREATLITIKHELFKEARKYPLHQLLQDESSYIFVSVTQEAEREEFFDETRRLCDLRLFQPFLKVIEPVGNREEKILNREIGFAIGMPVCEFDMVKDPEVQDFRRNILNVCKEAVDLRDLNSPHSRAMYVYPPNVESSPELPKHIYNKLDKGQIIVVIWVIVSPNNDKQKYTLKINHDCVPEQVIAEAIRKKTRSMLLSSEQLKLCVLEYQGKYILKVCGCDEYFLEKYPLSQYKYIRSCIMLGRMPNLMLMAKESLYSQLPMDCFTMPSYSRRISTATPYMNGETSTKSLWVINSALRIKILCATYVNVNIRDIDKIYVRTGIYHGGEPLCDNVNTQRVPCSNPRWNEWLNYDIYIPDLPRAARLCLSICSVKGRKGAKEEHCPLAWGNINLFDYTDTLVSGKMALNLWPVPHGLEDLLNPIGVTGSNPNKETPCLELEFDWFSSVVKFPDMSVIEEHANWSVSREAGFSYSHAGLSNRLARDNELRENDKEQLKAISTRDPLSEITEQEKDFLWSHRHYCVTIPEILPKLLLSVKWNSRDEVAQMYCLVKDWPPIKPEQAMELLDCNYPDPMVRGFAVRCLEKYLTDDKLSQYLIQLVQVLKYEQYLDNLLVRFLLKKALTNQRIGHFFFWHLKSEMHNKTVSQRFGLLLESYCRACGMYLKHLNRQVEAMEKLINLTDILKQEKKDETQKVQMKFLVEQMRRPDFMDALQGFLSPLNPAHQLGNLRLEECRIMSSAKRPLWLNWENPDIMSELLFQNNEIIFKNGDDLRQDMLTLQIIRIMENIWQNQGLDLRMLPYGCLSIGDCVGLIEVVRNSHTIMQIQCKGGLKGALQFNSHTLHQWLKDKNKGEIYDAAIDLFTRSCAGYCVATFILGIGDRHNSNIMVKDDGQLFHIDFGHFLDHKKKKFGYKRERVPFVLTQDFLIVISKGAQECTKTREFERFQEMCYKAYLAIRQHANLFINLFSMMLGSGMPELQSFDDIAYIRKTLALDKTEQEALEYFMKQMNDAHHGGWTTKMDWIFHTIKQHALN
Sequence of UniProt Q8IWQ3 (whole entry, looked up): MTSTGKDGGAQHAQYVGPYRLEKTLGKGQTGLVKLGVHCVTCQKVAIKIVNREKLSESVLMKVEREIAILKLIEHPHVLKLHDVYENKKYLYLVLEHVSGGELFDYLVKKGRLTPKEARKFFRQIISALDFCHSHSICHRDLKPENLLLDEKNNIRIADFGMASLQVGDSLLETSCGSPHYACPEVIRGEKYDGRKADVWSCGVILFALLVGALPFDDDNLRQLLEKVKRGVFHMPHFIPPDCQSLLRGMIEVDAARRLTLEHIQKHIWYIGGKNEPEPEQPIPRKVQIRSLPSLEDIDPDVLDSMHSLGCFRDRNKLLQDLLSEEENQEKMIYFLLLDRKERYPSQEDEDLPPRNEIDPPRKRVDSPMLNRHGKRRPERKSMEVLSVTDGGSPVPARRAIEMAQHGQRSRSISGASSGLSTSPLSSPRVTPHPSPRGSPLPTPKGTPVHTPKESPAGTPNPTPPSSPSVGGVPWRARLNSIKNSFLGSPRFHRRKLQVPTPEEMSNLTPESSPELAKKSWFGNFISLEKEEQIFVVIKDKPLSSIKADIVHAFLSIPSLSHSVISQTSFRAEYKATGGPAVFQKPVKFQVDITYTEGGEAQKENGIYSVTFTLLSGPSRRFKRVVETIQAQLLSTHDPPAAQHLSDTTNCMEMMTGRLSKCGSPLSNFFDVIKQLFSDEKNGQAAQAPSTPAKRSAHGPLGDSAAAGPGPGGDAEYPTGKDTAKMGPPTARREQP
Sequence of UniProt O60285 (whole entry, looked up): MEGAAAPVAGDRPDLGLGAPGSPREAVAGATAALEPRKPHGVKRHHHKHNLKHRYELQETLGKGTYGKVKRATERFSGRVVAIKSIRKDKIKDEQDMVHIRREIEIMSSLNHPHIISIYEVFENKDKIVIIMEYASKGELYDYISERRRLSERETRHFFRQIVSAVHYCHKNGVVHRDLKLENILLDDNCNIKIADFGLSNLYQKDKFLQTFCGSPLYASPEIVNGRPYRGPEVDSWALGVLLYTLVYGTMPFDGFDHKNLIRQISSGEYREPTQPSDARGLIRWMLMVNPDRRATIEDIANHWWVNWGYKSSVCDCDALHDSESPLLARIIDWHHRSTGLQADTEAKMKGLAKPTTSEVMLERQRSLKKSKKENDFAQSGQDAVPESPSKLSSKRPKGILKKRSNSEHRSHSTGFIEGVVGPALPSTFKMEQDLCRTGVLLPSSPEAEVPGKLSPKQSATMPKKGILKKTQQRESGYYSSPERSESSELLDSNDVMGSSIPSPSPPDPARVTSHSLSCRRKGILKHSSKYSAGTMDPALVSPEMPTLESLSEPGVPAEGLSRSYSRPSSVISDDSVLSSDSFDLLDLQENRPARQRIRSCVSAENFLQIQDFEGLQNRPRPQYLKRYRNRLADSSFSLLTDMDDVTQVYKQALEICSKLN
Sequence of UniProt Q9Y6E0 (whole entry, looked up): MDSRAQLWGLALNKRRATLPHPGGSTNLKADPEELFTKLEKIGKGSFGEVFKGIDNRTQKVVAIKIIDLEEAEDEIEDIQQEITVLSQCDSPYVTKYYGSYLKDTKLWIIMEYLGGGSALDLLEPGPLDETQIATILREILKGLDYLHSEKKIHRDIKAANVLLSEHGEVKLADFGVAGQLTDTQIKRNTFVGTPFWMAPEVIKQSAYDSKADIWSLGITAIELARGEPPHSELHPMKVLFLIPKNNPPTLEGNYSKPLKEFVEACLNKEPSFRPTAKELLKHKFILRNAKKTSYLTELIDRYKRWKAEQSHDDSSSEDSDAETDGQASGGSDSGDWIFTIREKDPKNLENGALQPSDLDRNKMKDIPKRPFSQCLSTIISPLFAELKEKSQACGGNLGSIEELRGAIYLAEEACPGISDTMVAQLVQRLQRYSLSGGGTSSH
Sequence of UniProt P57058 (whole entry, looked up): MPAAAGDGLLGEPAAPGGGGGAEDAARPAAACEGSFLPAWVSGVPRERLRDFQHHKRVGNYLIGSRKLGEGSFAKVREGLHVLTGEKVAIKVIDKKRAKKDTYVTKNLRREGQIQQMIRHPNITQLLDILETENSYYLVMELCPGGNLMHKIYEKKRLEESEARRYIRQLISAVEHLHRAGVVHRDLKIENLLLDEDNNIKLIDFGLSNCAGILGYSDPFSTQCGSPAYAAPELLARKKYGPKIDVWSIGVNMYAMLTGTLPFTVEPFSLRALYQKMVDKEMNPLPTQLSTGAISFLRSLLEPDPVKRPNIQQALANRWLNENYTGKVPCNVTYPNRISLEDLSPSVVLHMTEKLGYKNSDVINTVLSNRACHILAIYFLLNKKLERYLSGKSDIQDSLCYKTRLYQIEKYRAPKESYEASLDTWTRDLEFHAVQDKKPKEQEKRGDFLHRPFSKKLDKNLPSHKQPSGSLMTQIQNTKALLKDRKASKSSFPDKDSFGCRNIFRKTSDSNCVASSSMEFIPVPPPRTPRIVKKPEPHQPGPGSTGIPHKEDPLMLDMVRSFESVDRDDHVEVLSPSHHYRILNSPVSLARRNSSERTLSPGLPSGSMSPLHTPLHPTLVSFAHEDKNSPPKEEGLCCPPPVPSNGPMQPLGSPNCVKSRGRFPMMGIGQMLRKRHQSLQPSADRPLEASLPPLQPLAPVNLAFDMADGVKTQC
Sequence of UniProt Q8IYT8 (whole entry, looked up): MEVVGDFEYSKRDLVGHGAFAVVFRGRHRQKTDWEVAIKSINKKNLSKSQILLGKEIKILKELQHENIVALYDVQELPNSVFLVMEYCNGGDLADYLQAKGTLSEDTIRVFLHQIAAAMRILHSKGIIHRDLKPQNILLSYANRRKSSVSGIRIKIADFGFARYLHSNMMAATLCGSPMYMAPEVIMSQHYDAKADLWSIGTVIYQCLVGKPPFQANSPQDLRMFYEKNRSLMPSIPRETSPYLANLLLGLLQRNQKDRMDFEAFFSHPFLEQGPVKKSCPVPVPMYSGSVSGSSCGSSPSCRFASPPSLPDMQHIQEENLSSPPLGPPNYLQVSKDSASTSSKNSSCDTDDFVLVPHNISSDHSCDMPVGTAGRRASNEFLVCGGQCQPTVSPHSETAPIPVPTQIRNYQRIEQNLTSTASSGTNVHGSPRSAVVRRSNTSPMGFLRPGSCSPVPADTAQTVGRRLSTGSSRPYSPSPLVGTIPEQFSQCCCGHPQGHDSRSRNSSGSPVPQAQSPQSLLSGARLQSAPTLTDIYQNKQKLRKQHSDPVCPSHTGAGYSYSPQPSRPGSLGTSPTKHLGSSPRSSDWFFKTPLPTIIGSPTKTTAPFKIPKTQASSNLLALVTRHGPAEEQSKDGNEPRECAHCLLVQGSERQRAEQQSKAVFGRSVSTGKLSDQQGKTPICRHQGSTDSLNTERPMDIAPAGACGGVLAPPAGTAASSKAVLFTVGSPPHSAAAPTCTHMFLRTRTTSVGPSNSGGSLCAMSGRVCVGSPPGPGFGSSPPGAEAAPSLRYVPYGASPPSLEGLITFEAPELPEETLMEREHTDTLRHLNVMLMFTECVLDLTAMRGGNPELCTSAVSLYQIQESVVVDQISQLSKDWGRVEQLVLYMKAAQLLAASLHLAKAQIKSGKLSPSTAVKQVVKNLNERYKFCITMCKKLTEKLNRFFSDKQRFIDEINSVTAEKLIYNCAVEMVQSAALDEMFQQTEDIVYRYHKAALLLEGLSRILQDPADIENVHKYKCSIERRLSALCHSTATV

Study 1
Compound: CC[C@@]1(c2ccccc2)C2=C(CC(C)(C)CC2=O)Nc2n[nH]cc21
Tested at: 1 µM
target	effect on	method	relative to	remaining binding [%]
ITK (Homo sapiens, UniProt Q08881)	binding	competition with immobilised ligand		100
Ribosomal protein S6 kinase alpha-5, N-terminal kinase domain (RPS6KA5, Homo sapiens, UniProt O75582)	binding	competition with immobilised ligand		100
EGFR (Homo sapiens, UniProt P00533, A750P/del747-749)	kinase binding	KINOMEscan	DMSO control	100
PRKCI (Homo sapiens, UniProt P41743)	kinase binding	KINOMEscan	DMSO control	100
PIK3CA (Homo sapiens, UniProt P42336, I800L)	kinase binding	KINOMEscan	DMSO control	59
KIT (Homo sapiens, UniProt P10721)	kinase binding	KINOMEscan	DMSO control	100
SIK2 (Homo sapiens, UniProt Q9H0K1)	binding	competition with immobilised ligand		78
BMPR1B (Homo sapiens, UniProt O00238)	kinase binding	KINOMEscan	DMSO control	100
BRSK2 (Homo sapiens, UniProt Q8IWQ3)	binding	competition with immobilised ligand		100
MAPK10 (Homo sapiens, UniProt P53779)	binding	competition with immobilised ligand		100
STK24 (Homo sapiens, UniProt Q9Y6E0)	binding	competition with immobilised ligand		91
MYLK3 (Homo sapiens, UniProt Q32MK0)	binding	competition with immobilised ligand		89
PRKG2 (Homo sapiens, UniProt Q13237)	binding	competition with immobilised ligand		100
CAMK4 (Homo sapiens, UniProt Q16566)	binding	competition with immobilised ligand		100
MAP3K9 (Homo sapiens, UniProt P80192)	binding	competition with immobilised ligand		100
NUAK1 (Homo sapiens, UniProt O60285)	binding	competition with immobilised ligand		80
ULK2 (Homo sapiens, UniProt Q8IYT8)	binding	competition with immobilised ligand		100
PRKCH (Homo sapiens, UniProt P24723)	binding	competition with immobilised ligand		100
HUNK (Homo sapiens, UniProt P57058)	kinase binding	KINOMEscan	DMSO control	74
PIK3CA (Homo sapiens, UniProt P42336, E542K)	binding	competition with immobilised ligand		70
GRK3 (Homo sapiens, UniProt P35626)	binding	competition with immobilised ligand		51
PRKCE (Homo sapiens, UniProt Q02156)	kinase binding	KINOMEscan	DMSO control	93
CASK (Homo sapiens, UniProt O14936)	kinase binding	KINOMEscan	DMSO control	96

Study 2
SMILES: CCN1/C(=C/C=C2\CCCC(/C=C/C3=[N+](CC)c4ccccc4C3(C)C)=C2NCCCCCCCCN2CCC(Nc3nc4ccccc4n3Cc3ccc(F)cc3)CC2)C(C)(C)c2ccccc21
Cell line: U-87 MG
Tested at: concentration not given
Relative to: DMSO
measured	log2 fold change
CMKLR2 mRNA	1.34
NIPA1 mRNA	1.07
SIK1 mRNA	1.3
ZBTB21 mRNA	1.42
TNFSF10 mRNA	-3.63
JARID2 mRNA	1.44
BAG3 mRNA	1.15
MAD2L1 mRNA	-1.81
SLC9A3R2 mRNA	-0.897
CARD10 mRNA	-1.65
MICAL3 mRNA	-1.05
TNFRSF19 mRNA	-1.65
TTF2 mRNA	-0.975
FAM83D mRNA	-2.44
FEM1C mRNA	0.949
RIPK2 mRNA	1.46

Study 3
SMILES: COCC1CC2C(CCC3C(O)CCC32)c2ccc(O)cc21 (centres unmarked)
cell line	method	measured	tested at	relative to	mRNA level ratio
PANC-1	microarray	GZMK	25 µM	untreated	1
A549	microarray	CDC25B	100 µM	untreated	0.971
A549	DNA microarray	MCM10	100 µM	untreated cells	0.747
A549	microarray	OLIG2	100 µM	untreated	1
PANC-1	microarray	GZMK	100 µM	untreated	1
A549	DNA microarray	GAPDH	100 µM	untreated cells	0.791 and 0.798 and 0.762 and 0.79
SK-OV-3	microarray	MCM6	25 µM	untreated	1.12
A549	DNA microarray	ACTA2	100 µM	untreated cells	1.48
PANC-1	DNA microarray	GAPDH	100 µM	untreated cells	0.627 and 0.63 and 0.624 and 0.608 and 0.631
PANC-1	microarray	PIF1	25 µM	untreated	1.47
A549	DNA microarray	KIF20A	25 µM	untreated cells	0.968 and 0.983 and 1.01 and 0.979 and 0.935
A549	DNA microarray	TMEM108	100 µM	untreated cells	2.99
SK-OV-3	DNA microarray	C6	25 µM	untreated cells	165
PANC-1	microarray	OLIG2	25 µM	untreated	1
SK-OV-3	microarray	PIF1	25 µM	untreated	0.811
SK-OV-3	microarray	SPC25	25 µM	untreated	0.931
A549	microarray	PIF1	25 µM	untreated	0.855
A549	microarray	PIF1	100 µM	untreated	0.696
PANC-1	DNA microarray	GINS1	100 µM	untreated cells	1.06

Further values, each from its own experiment
VHL with Elongin B/C: von Hippel-Lindau disease tumor suppressor, with Elongin B/C (VHL, Homo sapiens, UniProt P40337)
Compound	tested on	assay	system	setting	endpoint	value
Cc1ncsc1-c1ccc(C(CO)NC(=O)C2CC(O)CN2C(=O)C(NC(=O)c2ccc(COc3c(-c4c(C)c(F)cc5[nH]ncc45)c(C4CC4)cc4c(N5CC6CC5CN6)nc(OC5CCOCC5)nc34)cc2)C(C)C)cc1 (centres unmarked)	VHL with Elongin B/C	SPR, single-cycle	immobilized VCB complex	binary, geometric mean	koff	0.0157 s⁻¹
Cc1ncsc1-c1ccc(C2(NC(=O)C3CC(O)CN3C(=O)C(NC(=O)c3ccc(COc4c(-c5c(C)c(F)cc6[nH]ncc56)c(C5CC5)cc5c(N6CC7CC6CN7)nc(OC6CCOCC6)nc45)cc3)C(C)C)CC2)cc1 (centres unmarked)	VHL with Elongin B/C	SPR, single-cycle	immobilized VCB complex	binary, geometric mean	koff	0.0554 s⁻¹
Cc1ncsc1-c1ccc(C2(NC(=O)C3CC(O)CN3C(=O)C(NC(=O)c3ccc(COc4c(-c5c(C)c(F)cc6[nH]ncc56)c(C5CC5)cc5c(N6CC7CC6CN7)nc(OC6CCOCC6)nc45)cc3)C(C)(C)C)CC2)cc1 (centres unmarked)	KRAS/VHL, GDP-bound (Homo sapiens, UniProt P01116+P40337, G12D)	SPR, single-cycle	immobilized KRAS G12D	ternary, geometric mean, together with: VCB complex	koff	13 s⁻¹
CCN1CCN(Cc2ccc(COc3c(-c4c(C)c(F)cc5[nH]ncc45)c(C4CC4)cc4c(N5C[C@@H]6C[C@H]5CN6)nc(OC5CCOCC5)nc34)cc2)C(=O)C1	AsPC-1 KRAS G12D	ERK1/2 phosphorylation, inhibitor, In-Cell ELISA		24 h, geometric mean of experiments	IC50	0.846 µM

For quick reference, copied from above (study 3):
cell line	method	measured	tested at	relative to	mRNA level ratio
A549	DNA microarray	TMEM108	100 µM	untreated cells	2.99
SK-OV-3	DNA microarray	C6	25 µM	untreated cells	165
PANC-1	microarray	OLIG2	25 µM	untreated	1
